Published values collected from several papers.
Every numbered part comes from another study and shows a few of its results, in no order.

Block 1
Target: RING finger protein unkempt homolog, zinc fingers 1-6, GST-SBP tag (UNK, Homo sapiens, UniProt Q9C0B0, residues 30-357)
Technique: RNA Bind-n-Seq
Form: RNA
Sample: in vitro
Concentration: not given
Setting: RNA with constant flanks, human and mouse sites, ends assumed
Relative to: input RNA pool
Direction: higher = stronger binding
Endpoint: bound/input enrichment
Target sequence (chain): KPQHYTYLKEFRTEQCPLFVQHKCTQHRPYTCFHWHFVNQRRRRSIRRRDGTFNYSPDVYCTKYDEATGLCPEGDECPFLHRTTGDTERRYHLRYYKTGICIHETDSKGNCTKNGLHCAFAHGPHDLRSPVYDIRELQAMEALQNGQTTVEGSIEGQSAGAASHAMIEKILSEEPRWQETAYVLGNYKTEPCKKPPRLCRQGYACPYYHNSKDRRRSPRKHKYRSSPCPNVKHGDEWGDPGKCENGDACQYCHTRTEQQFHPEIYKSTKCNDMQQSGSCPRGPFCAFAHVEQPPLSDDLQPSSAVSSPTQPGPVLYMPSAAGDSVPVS
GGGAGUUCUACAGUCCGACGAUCCGCUUCAGUGUCCUGGAAGUGCUUAAGUACCUGUUAAUGAGACGCUGGGAUUGAAUGCUGAGUUCCGGCCAUGCCUGGAGUGGCUGUACAGAGACCACAAAGAGUUCAGGUCUGUGUCCACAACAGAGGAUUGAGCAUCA: 0.135 ratio
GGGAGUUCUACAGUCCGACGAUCAAACUGACAGAGCUCCUCCGAUACUACAUGCUCAACAUAGAGGCUGCAAAGGAUCUCUUGUAUAGACGUACCAAAGCCCUAAUUGACUAUGAGAAUUCAAACAAAGCUUUGGACAAGGCCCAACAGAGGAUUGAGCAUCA: 0.12 ratio
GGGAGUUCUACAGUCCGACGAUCCAGCUGGAAGAUGGGCGCACCCUGUCUGACUACAACAUCCAGAAAGAGUCUACCCUGCACCUGGUGCUCCGUCUCAGAGGUGGGAUGCAGAUCUUCGUGAAGACCCUGACUGGUAAGACCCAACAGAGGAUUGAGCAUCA: 0.0756 ratio
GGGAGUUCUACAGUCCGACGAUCCUCUUCAAGAGCAUCUGGAACAACAGAUGGCUGCGCACCAUCUCUGUGAUCCUGUUCCUCAACAAGCAAGAUCUGCUCGCUGAGAAAGUCCUUGCUGGGAAAUCGAAGAUUGAGGACUACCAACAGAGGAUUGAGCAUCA: 0.0608 ratio
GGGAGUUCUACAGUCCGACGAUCUGGUGAGGGCCCCAAAGCCCAUAUCCGGAAGCUAGCUGAGUGCAUCCGCUGGUCCUAUGGAGCAGGCGUCGUCCUCCGACUUGGCAACAUCGCUCGGCUGGAGCUGAACUACUGCAUUCCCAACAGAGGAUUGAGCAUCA: 0.0409 ratio
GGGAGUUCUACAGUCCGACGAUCCACAAACCUAAUGGACAGCAUGAGAUUUCCUUCAGCGUUGCAGAUACUGAAGUGACUUCUAGCAUAUCAAUCAAUUCUUCCGAUGUACCUGAAGUCACCCAGUCAGAGAAUGUUGGAUCACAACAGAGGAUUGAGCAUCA: 0.145 ratio
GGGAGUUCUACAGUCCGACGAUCGCAGUCCGCAGAACGGAAACUGGACGCAUUGGAUUAGAAGGCUGCCUUUGUCAAGAUUUUUAUAGGAUAAGAGACCUUUUAUAUGAACAAUAUGCCAUUGUAUAAAGGACAUGAUGUCAACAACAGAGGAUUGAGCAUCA: 0.923 ratio
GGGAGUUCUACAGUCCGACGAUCCCACUCCCAGAAUCAGAAGUGACUCUGGGCAAGGACGUGGUUAUACUUCCAGAAACAAAGGUGGCUGAGUUUAACAAUGUGACUCCACUUUCAGAAGAAGAGGUAACCUCAGUCAAGGACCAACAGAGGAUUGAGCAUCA: 0.123 ratio

Block 2
Target: Histone acetyltransferase KAT6A, winged helix 1, GST fusion (KAT6A, Homo sapiens, UniProt Q92794, residues 1-85)
Technique: protein binding microarray
Form: double-stranded DNA, one strand shown
Sample: in vitro
Concentration: not given
Setting: 8-mer, flanks averaged, mean of 2 arrays, mostly near background
Relative to: not given
Direction: higher = stronger binding
Endpoint: E-score
Residues (chain): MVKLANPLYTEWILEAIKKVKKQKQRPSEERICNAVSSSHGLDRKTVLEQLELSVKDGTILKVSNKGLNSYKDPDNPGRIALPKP
TCTATGCA: -0.235
CCGTCACG: 0.373
CCGCTGCC: 0.264
ACACGGGA: 0.208
CTTAAAAA: -0.192
CTCTGAGA: -0.118
GCTAGGAA: -0.19
AATGTTGG: -0.148
GTCCACTA: -0.189
GAAGCGAA: -0.006
CTGCCTCC: 0.044
ATGCGTAC: 0.156
CATATGCG: 0.205
AACCTGTC: -0.0844
AGTTTGTG: -0.109
AAAGAGAA: -0.085
AGTCATGC: 0.0115
ATACCTCA: -0.205
ATATTCTC: -0.213
CGGTCCTC: 0.203
AGTACAAT: 0.0186
TCCACAGA: -0.219
CTCGATCA: -0.0632
AGTCCCCG: 0.157
ACAGTTGC: -0.114

Block 3
Target: Sal-like protein 4, full length isoform B (SALL4, Homo sapiens, UniProt Q9UJQ4-2, residues 1-616)
Technique: universal PBM
Form: double-stranded DNA, one strand shown
Sample: in vitro
Concentration: not given
Setting: 8-mer, flanks averaged, mean of replicates
Direction: higher = stronger binding
Endpoint: E-score
Target sequence (chain): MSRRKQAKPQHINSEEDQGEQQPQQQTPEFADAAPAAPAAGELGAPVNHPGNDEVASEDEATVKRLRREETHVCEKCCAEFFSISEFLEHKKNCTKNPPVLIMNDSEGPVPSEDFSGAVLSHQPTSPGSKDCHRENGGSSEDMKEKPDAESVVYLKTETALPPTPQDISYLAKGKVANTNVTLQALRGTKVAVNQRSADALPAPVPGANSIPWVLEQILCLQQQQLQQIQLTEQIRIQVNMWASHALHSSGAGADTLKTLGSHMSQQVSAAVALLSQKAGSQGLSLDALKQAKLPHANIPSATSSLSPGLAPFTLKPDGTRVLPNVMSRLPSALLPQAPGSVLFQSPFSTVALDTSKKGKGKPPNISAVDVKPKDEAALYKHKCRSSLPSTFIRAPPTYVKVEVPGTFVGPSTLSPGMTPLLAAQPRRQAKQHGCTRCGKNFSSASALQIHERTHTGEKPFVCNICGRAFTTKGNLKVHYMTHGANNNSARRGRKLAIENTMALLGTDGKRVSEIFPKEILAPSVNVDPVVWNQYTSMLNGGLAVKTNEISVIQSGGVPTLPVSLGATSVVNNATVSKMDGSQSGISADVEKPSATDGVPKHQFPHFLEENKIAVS
CAAATGGG: -0.045
ACCCGGCT: -0.311
CGAACCTC: -0.0832
GGTCAACA: 0.0679
AATAGTGG: 0.219
TCTGTTAA: 0.186
ATTGTGCC: 0.0246
GATGAGCA: 0.0486
CGCCTCCG: -0.268
GGATACGA: 0.08
GCACTCAA: -0.207
ACGGCTGC: -0.341
CGTATTTC: 0.238
CCCTTTGA: -0.101
CAGACGGG: -0.202
CAGCGCCG: -0.381
CGAGTCTC: -0.283
CGGCGGCA: -0.404
CACGTCAC: 0.0822
CACGCTGC: -0.24
ACGCGCAC: -0.281
ATCTCACA: 0.135
ATACACGA: 0.0826
ATGTCCTA: 0.0593
GAACCGTA: -0.132

Block 4
Target: RNA binding protein fox-1 homolog 2, RRM domain, GST-SBP tag (RBFOX2, Homo sapiens, UniProt O43251-10, residues 100-194)
Technique: RNA Bind-n-Seq
Form: RNA
Sample: in vitro
Concentration: 365 nM
Setting: natural RNA segment, single round, ends assumed
Relative to: no-protein control
Direction: higher = stronger binding
Endpoint: RBNS enrichment (R)
Residues (chain): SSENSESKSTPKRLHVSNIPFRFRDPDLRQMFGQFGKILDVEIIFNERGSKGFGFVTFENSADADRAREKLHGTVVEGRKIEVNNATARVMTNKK
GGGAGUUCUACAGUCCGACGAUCUUUAAAACUGUAUUAAAUAUGCACAUUUUUGGUAUAGCUAUUAUCAUUUGUAUGUAUAUAUUGUAUAUACAUAUGAGUGUCUGUAUGUGUGUAUAGAUGGAUGGAUGUAAUGGAAUUCUCGGGUGCCAA: 0.393
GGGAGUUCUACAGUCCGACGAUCCGGUGCUGCUGUUAAGACGUGAGUGCAUUUCACUUGGAAGAACCCAUUGUACAAAGUUCAAGGCUAAGAGUUCUGAAUUCUGGCGUCAGCUUCCUCAGGAUUUUCUUCAGUGGAAUUCUCGGGUGCCAA: 0.262
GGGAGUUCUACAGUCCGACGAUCAACUAGCAUAGGUCCCACAGAGAUGUGACAGAAUGAUGAAGCCGGCACCACAGCAUGUUGUUAUGUGAGGAGGCAAUCUGGAUAGCAAGCAUGUACCACAAAACAGUAGUUGGAAUUCUCGGGUGCCAA: 34.7
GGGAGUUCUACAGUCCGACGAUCAUGCCACCCCCCAGCGGGUACCAGAGGAAAGCUGGCAGCAGGCGCCUCCUCCCCCAACGCAUCCCAGCCAGUGCCAUGUCCUCUGCAGGUGGAGUUACUGGCCUACUCCUUGGAAUUCUCGGGUGCCAA: 0.828
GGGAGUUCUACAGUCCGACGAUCCAAGGCAUUUACUCCUUGGUCUGUCUCGCUUUAUCUGUCGCCCCUCCCAGCGCUGAGAGCCUCCCCUGGCUGUCAGCAGCACUGUGUCCAGGCUCUUGUCUGAACACCGCUGGAAUUCUCGGGUGCCAA: 0.163
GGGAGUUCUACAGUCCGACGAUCUGUGAUUGGCUGCCUGUUAGCCCAUCGACUAUUCCCGUCACGGUAGUCCUUACCUCUGUCGGCAGCUCAGAGCCUCCACAUUUUUAUAUUUAAUUCUCAUGAUAAAUUAGUGGAAUUCUCGGGUGCCAA: 0.311
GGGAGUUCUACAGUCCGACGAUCGCUGGCUUAUCGGCCACCCAAUGACCCUGUUCAGUAUCUGCUUGUCAUCUUGCCAGAACAAGCUCUCAGCAGCCCAGGAACAGUCCAUGGCCUUCUCAGGCCUGGCCCUUUGGAAUUCUCGGGUGCCAA: 0.228
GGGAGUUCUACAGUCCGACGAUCCUGUGCCAUGGAUUUUGUUUUCCUUGGGGUAUUCUUGAUGUGAAGAUAAUUUGCAUACUCUAUUGUAUUAUUUGGAGUUAAAUCCUCACUUUGGGGGAGGGGGGAGCAAAUGGAAUUCUCGGGUGCCAA: 1.01

Repeated from above (block 1):
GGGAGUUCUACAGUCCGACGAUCCGCUUCAGUGUCCUGGAAGUGCUUAAGUACCUGUUAAUGAGACGCUGGGAUUGAAUGCUGAGUUCCGGCCAUGCCUGGAGUGGCUGUACAGAGACCACAAAGAGUUCAGGUCUGUGUCCACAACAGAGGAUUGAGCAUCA: 0.135 ratio
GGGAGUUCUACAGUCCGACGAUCAAACUGACAGAGCUCCUCCGAUACUACAUGCUCAACAUAGAGGCUGCAAAGGAUCUCUUGUAUAGACGUACCAAAGCCCUAAUUGACUAUGAGAAUUCAAACAAAGCUUUGGACAAGGCCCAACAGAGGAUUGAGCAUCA: 0.12 ratio
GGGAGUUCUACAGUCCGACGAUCCAGCUGGAAGAUGGGCGCACCCUGUCUGACUACAACAUCCAGAAAGAGUCUACCCUGCACCUGGUGCUCCGUCUCAGAGGUGGGAUGCAGAUCUUCGUGAAGACCCUGACUGGUAAGACCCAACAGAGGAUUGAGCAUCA: 0.0756 ratio
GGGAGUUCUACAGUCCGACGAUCCUCUUCAAGAGCAUCUGGAACAACAGAUGGCUGCGCACCAUCUCUGUGAUCCUGUUCCUCAACAAGCAAGAUCUGCUCGCUGAGAAAGUCCUUGCUGGGAAAUCGAAGAUUGAGGACUACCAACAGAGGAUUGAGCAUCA: 0.0608 ratio
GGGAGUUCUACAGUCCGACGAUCUGGUGAGGGCCCCAAAGCCCAUAUCCGGAAGCUAGCUGAGUGCAUCCGCUGGUCCUAUGGAGCAGGCGUCGUCCUCCGACUUGGCAACAUCGCUCGGCUGGAGCUGAACUACUGCAUUCCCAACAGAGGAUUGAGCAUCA: 0.0409 ratio
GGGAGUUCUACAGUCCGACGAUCCACAAACCUAAUGGACAGCAUGAGAUUUCCUUCAGCGUUGCAGAUACUGAAGUGACUUCUAGCAUAUCAAUCAAUUCUUCCGAUGUACCUGAAGUCACCCAGUCAGAGAAUGUUGGAUCACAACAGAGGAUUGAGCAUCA: 0.145 ratio
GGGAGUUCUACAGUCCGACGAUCGCAGUCCGCAGAACGGAAACUGGACGCAUUGGAUUAGAAGGCUGCCUUUGUCAAGAUUUUUAUAGGAUAAGAGACCUUUUAUAUGAACAAUAUGCCAUUGUAUAAAGGACAUGAUGUCAACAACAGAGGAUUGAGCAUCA: 0.923 ratio
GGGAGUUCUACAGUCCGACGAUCCCACUCCCAGAAUCAGAAGUGACUCUGGGCAAGGACGUGGUUAUACUUCCAGAAACAAAGGUGGCUGAGUUUAACAAUGUGACUCCACUUUCAGAAGAAGAGGUAACCUCAGUCAAGGACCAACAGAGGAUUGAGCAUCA: 0.123 ratio
